Measurements collected from several papers.
Each line is one published result; not all experiments were run side by side. “And” joins repeats or separate records; there may be more than shown. ± marks the error that the study gave.

| SMILES | test | test system | setting | scale | quantity | value |
| --- | --- | --- | --- | --- | --- | --- |
| N=C(N)NCCC[C@H](N)C(=O)N1CCC[C@H]1C(=O)NCC(=O)NCC(=O)O | diketopiperazine formation, transition state theory | 1-propanol | concentration not given, 70, 80, 90 °C, 0.5% acetic acid |  | enthalpy of activation | 22.9 ± 1.91 kcal/mol |
| COc1cc(CN2CCN(c3ccccc3[N+](=O)[O-])CC2)c2cc3[n+](cc2c1O)CCc1cc2c(cc1-3)OCO2 | ferric reducing power, FRAP |  | 10 µg/mL, 30 min | higher is greater reducing power | FRAP absorbance | 0.004 ± 0.48 a.u. |
| CCOC(=O)Cc1csc(NC(=O)CN2CCC(O)CC2)n1 | paw oedema | mouse | intraperitoneal, 200 µmol/kg |  | inhibition in vivo | 33.4% |
| CCCCOc1nc(N)c2[nH]c(=O)n(CCCN(CCCN3CCOCC3)Cc3cccc(CC(=O)OC)c3)c2n1 |  | rat, Brown Norway, ovalbumin-sensitised | intratracheal, 1 mg/kg once weekly, eight doses, challenge 26 days after last dose |  | BAL eosinophils | inhibited |
| C=C(c1ccc(C(=O)O)c(F)c1)c1cc2c(cc1C)C(C)(C)C=CC2(C)C | RNA sequencing, item: Epha3 mRNA | rat, brain | dose not given, 24 h, single dose | baseline: vehicle | log2 fold change | -0.49 |
| COc1cc(CN2CCN(c3ccc([N+](=O)[O-])cc3)CC2)c2cc3[n+](cc2c1O)CCc1cc2c(cc1-3)OCO2 | ferric reducing power, FRAP |  | 10 µg/mL, 30 min | higher is greater reducing power | FRAP absorbance | 0.005 ± 0.73 a.u. |
| CC(=O)Nc1ccc(OC(=O)CCC(=O)[O][Pt-2]23([O]C(=O)CCC(=O)Oc4ccc(NC(C)=O)cc4)([NH2+][C@@H]4CCCC[C@H]4[NH2+]2)[O]C(=O)C(=O)[O]3)cc1 |  | BALB/c mouse, 4T1 tumour, spleen | dose not given |  | mature dendritic cells | 23.2% |
| Cc1[nH]nc2c1N=C(c1ccccc1Cl)c1cnc(N3CCOCC3)cc1N2 | item: haemoglobin | nude mice, Matrigel plug | oral, dose not given, 7 d, once daily |  | angiogenesis | inhibited |
| COc1ccc2c(c1)c(CC(=O)OCOC(C)=O)c(C)n2C(=O)c1ccc(Cl)cc1 | hot plate test | BALB/c mice | 50 mg/kg, 60 min |  | latency of nociceptive response | 15.9 ± 0.87 s |
| O=c1cc(-c2ccc(O)c(O)c2)oc2cc(O[C@@H]3O[C@H](CO)[C@@H](O)[C@H](O)[C@H]3O)cc(O)c12 |  |  | 200 µg/mL, added: sodium nitroprusside |  | nitric oxide scavenging | 67.7 ± 0.02% |
| NC(=S)N/N=C1\c2ccccc2-c2nc3cc(F)ccc3nc21 |  | mice with STZ-induced diabetes | oral, 25 mg/kg, 216 h, day 9 |  | blood glucose | 213 ± 10.3 mg/dL |
| CCNC(=S)NNS(=O)(=O)c1ccc2c(c1)n(C)c(=O)c(=O)n2C | IPGTT | HFD/STZ diabetic male albino mice | 10 mg/kg, 3 h |  | blood glucose | 95.3 ± 5.48 mg/dL |
| CC=CC(CC(=O)O)c1ccc(OCc2ccc(-c3cc(OC)ccc3F)cc2)cc1 (stereo not shown) | item: total GLP-1 | colonic crypt cultures, wild type, mouse, ex vivo | 1 µM, 2 h, unit not given | baseline: vehicle | GLP-1 release | 1.4 ± 0.2 |
| O=c1[nH]c(=S)[nH]c2c1C(c1cc(/N=N/c3ccc(Br)cc3)ccc1O)c1c([nH]c(=S)[nH]c1=O)N2 |  | rat, carrageenan paw oedema | oral, 50 mg/kg, 3 h |  | oedema inhibition | 54% |
| CC[C@H]1[C@@H](O)[C@@H]2[C@H](CC[C@]3(C)[C@@H]([C@H](C)CCOS(=O)(=O)[O-])CC[C@@H]23)[C@@]2(C)CC[C@@H](O)C[C@@H]12.[Na+] |  | ob/ob NASH mouse model, plasma | oral, 10 mg/kg once daily, before treatment, baseline of 8 week study |  | AST activity | 359 ± 15.6 U/L |
| CNc1oc(-c2cccc3ccccc23)nc1C#N | item: 4-HNE, Nrf2 nuclear, GPX1 | CD1 mice | ip, 24 mg/kg daily, 2 weeks |  | oxidative stress markers | no effect |
| C[C@@H](O)[C@H](N)C(=O)N1CCC[C@H]1C(=O)NCC(=O)NCC(=O)O | diketopiperazine formation, transition state theory | 1-propanol | concentration not given, 70, 80, 90 °C, 0.5% acetic acid |  | enthalpy of activation | 17 ± 1.91 kcal/mol |
| C=C(c1cc(F)c(C(=O)O)c(F)c1)c1cc2c(cc1C)C(C)(C)CCC2(C)C | RNA sequencing, item: Pdk4 | rat, brain | dose not given, 24 h | baseline: vehicle | log2 fold change | 0.87 |
| CCOC(=O)c1cc2c(N)c(C(=O)OC)sc2nc1C |  | wild-type mice | subcutaneous, 100 mg/kg |  | time to return to baseline | 12 h |
| O=C1CCN(Cc2ccccc2)CC1C(C[N+](=O)[O-])c1ccccc1 (stereo not shown) | tail immersion test | BALB/c mice | ip, 25 mg/kg, 1.25 h |  | tail flick response | 42.2% |
| COc1ccc(C2CC(c3ccc(C)cc3)=Nc3ccccc3S2)cc1OC (stereo not shown) |  | Wistar rat, STZ-induced diabetes, serum | 10 mg/kg, 28 days |  | HDL cholesterol | 48 mg/dL |
| CCC1CC2C(C)=CC3C(=O)CCCC3C=CC(C)=CC2C(=O)O1 (stereo not shown) | thioflavin S staining, item: amyloid-beta plaques | 5XFAD mouse (male, 8 months), hippocampus | oral, 30 mg/kg three times per week, one month | baseline: vehicle | plaque number reduction | 11.2% |
| NCCCC[C@H](N)C(=O)N1CCC[C@H]1C(=O)NCC(=O)NCC(=O)O | diketopiperazine formation, transition state theory | 1-propanol | concentration not given, 70, 80, 90 °C, 0.5% acetic acid |  | enthalpy of activation | 22.9 ± 6.21 kcal/mol |

| SMILES | test | test system | setting | scale | quantity | value |
| --- | --- | --- | --- | --- | --- | --- |
| Cc1nc(C)c(C=[N+]([O-])C(C)(C)C)nc1C | Western blot, item: Nrf2 | mouse, MPTP model, substantia nigra cytosol | 90 mg/kg |  | protein level increase | 123% |
| COC(=O)[C@H](CC(C)C)NC(=O)[C@@H]1C[C@@H]2CN1C(=O)[C@H]([C@@H](C)OP(=O)(O)O)NC(=O)[C@H](CO)NC(=O)[C@@H](NC(=O)c1cccc(C(F)(F)F)c1)CCC(=O)NCCO2 |  | zebrafish embryo | microinjection, 12.2 ng, 24 hpf | baseline: control | yolk extension area decrease | 19% |
| N[C@@H](Cc1c[nH]c2ccccc12)C(=O)N1CCC[C@H]1C(=O)NCC(=O)NCC(=O)O | diketopiperazine formation, transition state theory | 1-propanol | concentration not given, 70, 80, 90 °C, 0.5% acetic acid |  | enthalpy of activation | 23.9 ± 1.67 kcal/mol |
| C[C@H](NC(=O)COC(=O)[C@H](C)NC(=O)CO)C(=O)O |  | water | pH 2, 65 °C |  | depolymerization rate constant | 0.02 h⁻¹ |
| C[C@H](N)C(=O)N1CCC[C@H]1C(=O)NCC(=O)NCC(=O)O | diketopiperazine formation, transition state theory | 1-propanol | concentration not given, 70, 80, 90 °C, 0.5% acetic acid |  | enthalpy of activation | 19.1 ± 0.956 kcal/mol |
| Cn1c(=O)c(=O)n(C)c2cc(S(=O)(=O)NNC(=S)Nc3ccccc3)ccc21 | IPGTT | HFD/STZ diabetic male albino mice | 10 mg/kg, 3 h |  | blood glucose | 86.3 ± 2.48 mg/dL |
| O=C(CN1CCC(O)CC1)Nc1nccs1 | paw oedema | mouse | intraperitoneal, 200 µmol/kg |  | inhibition in vivo | 52.3% |
| C=CCC1C(=O)C=C(OC)C2(OC)C(C)C(c3ccc4c(c3)OCO4)OC12 (single isomer, unassigned; (-)) | item: CYP7A1, CYP8B1 | mouse, bile duct ligation, liver | dose not given |  | mRNA level | decreased |
| Oc1ccc2nc1CNCCNCCNC2 | potentiometric titration |  | 298 K, I 0.15 M NaCl, added: Cu2+ |  | log beta ML | 22.7 |
| O=C(OCc1cccc(O)c1O)c1ccc(O)c(CO)c1 | DHE fluorescence | C57BL/6J mice, aorta | dose not given, added: angiotensin II infusion |  | oxidative stress | inhibited |
| Cc1csc(NC(=O)CN2CCC(O)CC2)n1 | paw oedema | mouse | intraperitoneal, 200 µmol/kg |  | inhibition in vivo | 59% |
| CN1CCC[C@]1(C)/C=C/S(=O)(=O)NC(=O)Nc1c2c(cc3c1CCC3)CCC2 | IL-18 release | human, whole blood ex vivo | oral, 12.5 mg, 12 h after last dose, multiple ascending dose, added: LPS and ATP |  | inhibition | ~90% |
| CCCc1nc2cc(C(=O)N3CCC4(CC3)CC(=O)c3cc5c(cc3O4)OC(C)(C)CC5)cc(C)c2[nH]1 | Sirius red staining, item: Col1a1 mRNA, collagen | C57BL/6J male mouse, HFD-induced NASH | intragastric, dose not given, daily |  | liver fibrosis | inhibited |
| CCCN1C(=O)CCc2cc(NS(=O)(=O)Cc3ccccc3)ccc21 |  | Arabidopsis thaliana Col-0, one month old, detached rosette leaves | 50 µM spray, rapid dehydration | baseline: DMSO | water loss | no effect |
| CC(C)C1=C(OC(=O)C(C)(C)C)C(=O)C2=C(C=C[C@H]3C(C)(C)CCC[C@]23C)C1=O | hydroxyl radical absorbance capacity, fluorometric |  |  |  | HORAC | 0.642 Trolox equivalents |
| N[C@@H](Cc1ccccc1)C(=O)N1CCC[C@H]1C(=O)NCC(=O)NCC(=O)O | diketopiperazine formation, transition state theory | 1-propanol | 70, 80, 90 °C, 0.5% acetic acid |  | ΔS‡ at 298.15 K | -36 ± 3 J/(mol·K) |
| FC(F)(F)Oc1ccc(/N=c2\oc3ccccc3cc2-c2ccccc2)cc1 |  | rat, formalin paw oedema | intraperitoneal, 10 mg/kg, 2 h |  | oedema reduction | 37.5 ± 2.5% |
| [2H]c1c(NS(C)(=O)=O)c([2H])c2c(C(=O)c3ccc(OCCCN(CCCC)CCCC)cc3)c(CCCC)oc2c1[2H] |  | dog, persistent atrial fibrillation model, conscious | intravenous, 3 mg/kg, hydrochloride salt |  | time to AF termination | 6.1 h and 12.3 h |
| Cc1ccc(C(=O)Nc2ccc(CP(=O)(O)O)cc2CP(=O)(O)O)cc1NC(=O)c1cccc(NC(=O)Nc2cccc(C(=O)Nc3cc(C(=O)Nc4ccc(CP(=O)(O)O)cc4CP(=O)(O)O)ccc3C)c2)c1 |  | human plasma | 141 µM |  | PT | 13 ± 1.5 s |
| C=C(c1ncc(C(=O)O)cn1)c1cc2c(cc1C)C(C)(C)CCC2(C)C | RNA sequencing, item: Upp1 | rat, brain | dose not given, 24 h | baseline: vehicle | log2 fold change | -0.7 |
| FC(F)(F)c1ccccc1/N=c1\oc2ccccc2cc1-c1ccccc1 |  | rat, formalin paw oedema | intraperitoneal, 20 mg/kg, 1 h |  | oedema reduction | 30.7 ± 2.4% |
| O=C(O)c1ccc(/C=C2\SC(=S)N(Cc3cccc(C(F)(F)F)c3)C2=O)cc1 |  | mouse, high-fat diet, liver and white adipose | dose not given |  | TNF-α and MCP-1 production | decreased |
| COc1c2c(cc3oc(CO)cc(=O)c13)O[C@H](C(C)(C)O)C2 | analgesia, hot plate test | mouse | oral, dose not given |  | onset of latency increase | 0.5 h |

A few entries again:
| SMILES | test | test system | setting | scale | quantity | value |
| --- | --- | --- | --- | --- | --- | --- |
| Oc1ccc2nc1CNCCNCCNC2 | potentiometric titration |  | 298 K, I 0.15 M NaCl, added: Cu2+ |  | log beta ML | 22.7 |
| O=C(OCc1cccc(O)c1O)c1ccc(O)c(CO)c1 | DHE fluorescence | C57BL/6J mice, aorta | dose not given, added: angiotensin II infusion |  | oxidative stress | inhibited |
| Cc1csc(NC(=O)CN2CCC(O)CC2)n1 | paw oedema | mouse | intraperitoneal, 200 µmol/kg |  | inhibition in vivo | 59% |
| CN1CCC[C@]1(C)/C=C/S(=O)(=O)NC(=O)Nc1c2c(cc3c1CCC3)CCC2 | IL-18 release | human, whole blood ex vivo | oral, 12.5 mg, 12 h after last dose, multiple ascending dose, added: LPS and ATP |  | inhibition | ~90% |
| CCCc1nc2cc(C(=O)N3CCC4(CC3)CC(=O)c3cc5c(cc3O4)OC(C)(C)CC5)cc(C)c2[nH]1 | Sirius red staining, item: Col1a1 mRNA, collagen | C57BL/6J male mouse, HFD-induced NASH | intragastric, dose not given, daily |  | liver fibrosis | inhibited |
